Values quoted from earlier work, collected from citations in different studies.
Each line is one published result; not all experiments were run side by side. Numbers after ± are the reported error. No end group written: not given here.
B1: side-chain stapled; chain CPINIFHPPPDC (also: sidechain bridge or staple (positions not given here))
Sequence of UniProt P12821 (whole entry, looked up): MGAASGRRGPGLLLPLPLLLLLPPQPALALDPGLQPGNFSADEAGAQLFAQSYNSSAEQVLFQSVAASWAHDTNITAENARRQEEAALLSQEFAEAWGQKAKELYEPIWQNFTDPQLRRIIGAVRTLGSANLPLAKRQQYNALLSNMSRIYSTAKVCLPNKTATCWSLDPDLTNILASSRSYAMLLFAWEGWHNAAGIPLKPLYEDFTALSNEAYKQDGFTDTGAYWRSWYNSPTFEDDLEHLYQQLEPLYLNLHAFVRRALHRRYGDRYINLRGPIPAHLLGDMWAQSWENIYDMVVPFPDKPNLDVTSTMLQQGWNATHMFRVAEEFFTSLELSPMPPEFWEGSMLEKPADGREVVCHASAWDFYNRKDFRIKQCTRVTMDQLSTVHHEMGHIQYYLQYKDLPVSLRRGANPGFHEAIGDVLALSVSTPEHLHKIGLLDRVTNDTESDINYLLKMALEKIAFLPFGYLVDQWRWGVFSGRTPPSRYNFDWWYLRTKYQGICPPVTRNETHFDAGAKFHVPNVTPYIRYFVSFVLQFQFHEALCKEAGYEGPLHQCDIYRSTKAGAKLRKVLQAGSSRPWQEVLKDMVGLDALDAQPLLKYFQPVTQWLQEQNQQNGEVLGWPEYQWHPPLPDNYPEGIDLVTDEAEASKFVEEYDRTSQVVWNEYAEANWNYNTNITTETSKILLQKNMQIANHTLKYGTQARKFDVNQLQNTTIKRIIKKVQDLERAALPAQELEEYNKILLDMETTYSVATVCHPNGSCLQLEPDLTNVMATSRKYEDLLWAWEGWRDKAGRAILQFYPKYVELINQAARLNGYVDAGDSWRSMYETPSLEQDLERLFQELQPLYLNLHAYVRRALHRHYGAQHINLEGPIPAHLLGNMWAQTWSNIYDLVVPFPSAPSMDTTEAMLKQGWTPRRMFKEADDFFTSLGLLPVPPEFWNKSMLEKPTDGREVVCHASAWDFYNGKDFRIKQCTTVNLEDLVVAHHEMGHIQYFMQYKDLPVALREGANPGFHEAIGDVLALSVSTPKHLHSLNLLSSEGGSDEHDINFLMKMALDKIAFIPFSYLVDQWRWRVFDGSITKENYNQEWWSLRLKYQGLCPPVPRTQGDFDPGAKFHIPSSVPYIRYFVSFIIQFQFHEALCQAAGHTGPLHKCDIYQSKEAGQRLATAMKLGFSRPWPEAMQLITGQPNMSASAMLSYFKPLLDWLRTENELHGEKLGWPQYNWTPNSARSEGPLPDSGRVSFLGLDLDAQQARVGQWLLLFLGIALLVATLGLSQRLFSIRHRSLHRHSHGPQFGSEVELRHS

TNSKQGETTV  Kd (CHAPSYN-110 PDZ domain 3; binding, fluorescence polarization; peptide): 15800 nM
NGLTSPQRSPFPK  Kd (Cdc4; binding; peptide): 2600 nM
VRPGVKESLV  Kd (CHAPSYN-110 PDZ domain 3; binding, fluorescence polarization; peptide): 7060 nM
darobactin  Kd (BamA (BAM complex); binding, isothermal titration calorimetry): 1200 nM
indirubin-3'-monoxime  IC50 (HUVEC; cell migration): > 30000 nM
CLQKTPKQC  Kd (CD274 (Homo sapiens, UniProt Q9NZQ7); peptide): 373 nM
α-synuclein  Kd (Hsp70; monomers): ~10000 nM
RRISSLESEV  Kd (CHAPSYN-110 PDZ domains 2/3; binding, fluorescence polarization; peptide): 2260 nM
PVTPSTTKSFK  Kd (Cdc4; binding; peptide): 7000 nM
pegcetacoplan  micronucleus induction (TK6; with and without S9 activation): negative
AMTSRKRKFVWYVLSSSLKWLIKKAKKIGVQVCGFE  MIC (Staphylococcus aureus; peptide, ATCC 6538): 3 µM
B1  Kd (streptavidin; binding, surface plasmon resonance): 340 nM
SPDRDRESIV  Kd (CHAPSYN-110 PDZ domains 2/3; binding, fluorescence polarization; peptide): 16200 nM
CD80  Kd (CD28; binding; lower = stronger binding): ~4000 nM
DTKNYKQTSV  Kd (CHAPSYN-110 PDZ domain 3; binding, fluorescence polarization; peptide): 989 nM
KRRWKKNFIAVSAANRFKKISSS  Kd (calmodulin EF3/EF4 domain; binding; peptide; pH 7.4): 20 ± 10 nM
C-peptide  Kd (Cu(II); pH 7.4): 10 nM
CCL3  Kd (US28 wild type; binding, radioligand competition): 1.3 nM
teicoplanin  unbound fraction (plasma): 5 to 10%
KWIKIWFIWRRIKWRK  MIC (Staphylococcus aureus; peptide, methicillin-resistant): 31.2 µg/mL
LKYKA  IC50 (ACE (Homo sapiens, UniProt P12821); enzyme activity, inhibitor; peptide): 54.7 nM

A few entries again:
CLQKTPKQC  Kd (CD274 (Homo sapiens, UniProt Q9NZQ7); peptide): 373 nM
